Published values of several laboratories.
Several values in a cell are separate wells, animals, samples, runs or records. Numbers after ± are the reported error.
Alpha-1-acid glycoprotein 2: Alpha-1-acid glycoprotein 2 (Homo sapiens, UniProt P19652)
UniProt P19652, sequence (whole entry, looked up): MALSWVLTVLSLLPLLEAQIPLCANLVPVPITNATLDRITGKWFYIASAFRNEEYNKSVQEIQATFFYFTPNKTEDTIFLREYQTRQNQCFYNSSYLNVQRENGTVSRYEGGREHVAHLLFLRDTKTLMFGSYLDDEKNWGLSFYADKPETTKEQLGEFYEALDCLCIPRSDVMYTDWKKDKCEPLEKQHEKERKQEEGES
uncharacterized protein: uncharacterized protein (Bradysia odoriphaga, UniProt A0A2S0X9G4)
MAPT PSP brain aggregates: Microtubule-associated protein tau, PSP brain aggregates (MAPT, Homo sapiens, UniProt P10636)
UniProt P10636, sequence (whole entry, looked up): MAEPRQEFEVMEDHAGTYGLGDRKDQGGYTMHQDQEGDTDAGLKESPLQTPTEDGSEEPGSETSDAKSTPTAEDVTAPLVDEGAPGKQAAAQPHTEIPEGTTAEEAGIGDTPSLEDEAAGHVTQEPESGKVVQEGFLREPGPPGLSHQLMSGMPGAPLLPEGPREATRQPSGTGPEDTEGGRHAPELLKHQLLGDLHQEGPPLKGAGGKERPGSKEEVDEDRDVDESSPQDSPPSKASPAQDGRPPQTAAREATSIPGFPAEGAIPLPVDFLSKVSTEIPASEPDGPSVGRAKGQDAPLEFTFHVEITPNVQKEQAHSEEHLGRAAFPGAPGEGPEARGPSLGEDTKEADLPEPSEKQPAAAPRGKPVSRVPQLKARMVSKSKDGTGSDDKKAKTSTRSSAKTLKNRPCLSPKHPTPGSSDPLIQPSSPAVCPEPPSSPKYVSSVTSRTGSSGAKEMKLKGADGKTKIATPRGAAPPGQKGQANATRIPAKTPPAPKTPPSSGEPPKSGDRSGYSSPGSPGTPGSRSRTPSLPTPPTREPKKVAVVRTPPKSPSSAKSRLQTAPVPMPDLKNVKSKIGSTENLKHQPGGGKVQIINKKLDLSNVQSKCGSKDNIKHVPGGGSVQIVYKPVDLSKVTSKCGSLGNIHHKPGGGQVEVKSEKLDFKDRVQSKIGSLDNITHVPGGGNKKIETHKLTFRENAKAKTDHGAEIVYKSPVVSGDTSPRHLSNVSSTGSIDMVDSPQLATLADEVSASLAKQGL
TMEM97: Sigma intracellular receptor 2 (TMEM97, Homo sapiens, UniProt Q5BJF2)
UniProt Q5BJF2, sequence (whole entry, looked up): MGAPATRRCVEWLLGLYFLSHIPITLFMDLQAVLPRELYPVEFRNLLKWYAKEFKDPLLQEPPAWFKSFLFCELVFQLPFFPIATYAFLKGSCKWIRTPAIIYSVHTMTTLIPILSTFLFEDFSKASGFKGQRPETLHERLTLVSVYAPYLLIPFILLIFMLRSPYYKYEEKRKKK
UniProt P0AG16, sequence (whole entry, looked up): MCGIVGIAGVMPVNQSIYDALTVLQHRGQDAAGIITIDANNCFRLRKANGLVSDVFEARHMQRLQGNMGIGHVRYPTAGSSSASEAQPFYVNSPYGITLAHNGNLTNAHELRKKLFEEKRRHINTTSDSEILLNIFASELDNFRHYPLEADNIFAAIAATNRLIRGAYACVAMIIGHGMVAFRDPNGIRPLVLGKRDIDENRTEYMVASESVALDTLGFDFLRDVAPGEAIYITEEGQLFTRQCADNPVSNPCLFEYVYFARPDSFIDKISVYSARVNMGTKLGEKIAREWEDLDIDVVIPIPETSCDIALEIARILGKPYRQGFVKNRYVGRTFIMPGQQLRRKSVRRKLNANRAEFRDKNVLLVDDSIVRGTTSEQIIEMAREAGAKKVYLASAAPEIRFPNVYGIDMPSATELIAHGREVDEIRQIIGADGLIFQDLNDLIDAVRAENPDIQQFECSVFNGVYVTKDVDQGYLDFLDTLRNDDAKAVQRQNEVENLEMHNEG
UniProt P52790, sequence (whole entry, looked up): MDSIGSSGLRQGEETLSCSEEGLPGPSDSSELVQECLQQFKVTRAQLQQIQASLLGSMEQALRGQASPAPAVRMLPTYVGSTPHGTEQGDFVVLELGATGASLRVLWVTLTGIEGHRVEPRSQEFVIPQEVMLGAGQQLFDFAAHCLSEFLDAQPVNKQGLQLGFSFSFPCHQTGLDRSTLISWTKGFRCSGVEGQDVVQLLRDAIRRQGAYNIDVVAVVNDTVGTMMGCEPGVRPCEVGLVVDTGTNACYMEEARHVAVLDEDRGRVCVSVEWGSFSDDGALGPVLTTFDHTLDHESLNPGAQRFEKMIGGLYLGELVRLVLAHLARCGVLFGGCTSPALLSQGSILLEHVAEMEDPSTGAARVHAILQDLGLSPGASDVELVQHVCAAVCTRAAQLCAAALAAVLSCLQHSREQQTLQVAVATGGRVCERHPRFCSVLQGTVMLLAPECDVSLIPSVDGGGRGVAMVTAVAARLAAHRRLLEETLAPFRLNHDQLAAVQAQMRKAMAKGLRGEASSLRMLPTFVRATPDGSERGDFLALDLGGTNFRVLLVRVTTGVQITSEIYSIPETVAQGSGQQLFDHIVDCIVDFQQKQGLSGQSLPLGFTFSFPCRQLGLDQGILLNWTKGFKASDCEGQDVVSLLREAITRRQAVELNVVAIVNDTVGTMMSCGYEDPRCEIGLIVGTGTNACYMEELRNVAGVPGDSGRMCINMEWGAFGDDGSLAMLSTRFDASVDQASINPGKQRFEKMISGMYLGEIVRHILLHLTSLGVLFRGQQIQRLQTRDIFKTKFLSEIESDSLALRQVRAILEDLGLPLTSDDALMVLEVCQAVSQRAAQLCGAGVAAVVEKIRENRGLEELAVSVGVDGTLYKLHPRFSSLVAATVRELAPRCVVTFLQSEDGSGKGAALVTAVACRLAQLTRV
UniProt P00388, sequence (whole entry, unmodified, looked up): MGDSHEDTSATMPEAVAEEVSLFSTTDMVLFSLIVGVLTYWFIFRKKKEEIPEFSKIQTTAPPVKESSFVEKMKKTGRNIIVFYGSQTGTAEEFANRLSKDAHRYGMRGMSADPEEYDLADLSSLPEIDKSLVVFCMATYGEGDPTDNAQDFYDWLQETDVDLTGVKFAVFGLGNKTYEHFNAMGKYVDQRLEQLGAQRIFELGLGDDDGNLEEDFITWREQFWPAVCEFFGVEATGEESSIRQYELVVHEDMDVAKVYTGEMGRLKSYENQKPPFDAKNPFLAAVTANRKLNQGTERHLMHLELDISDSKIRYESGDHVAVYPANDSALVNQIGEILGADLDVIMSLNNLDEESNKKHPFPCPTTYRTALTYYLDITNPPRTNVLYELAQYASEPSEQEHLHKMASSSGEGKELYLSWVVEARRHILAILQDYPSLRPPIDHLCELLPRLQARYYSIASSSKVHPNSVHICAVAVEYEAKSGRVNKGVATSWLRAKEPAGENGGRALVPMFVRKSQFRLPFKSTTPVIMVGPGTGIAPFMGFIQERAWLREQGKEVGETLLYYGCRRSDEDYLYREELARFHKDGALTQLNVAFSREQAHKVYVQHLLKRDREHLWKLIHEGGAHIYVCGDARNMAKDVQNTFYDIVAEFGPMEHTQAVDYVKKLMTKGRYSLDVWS
UniProt O60658, sequence (whole entry, looked up): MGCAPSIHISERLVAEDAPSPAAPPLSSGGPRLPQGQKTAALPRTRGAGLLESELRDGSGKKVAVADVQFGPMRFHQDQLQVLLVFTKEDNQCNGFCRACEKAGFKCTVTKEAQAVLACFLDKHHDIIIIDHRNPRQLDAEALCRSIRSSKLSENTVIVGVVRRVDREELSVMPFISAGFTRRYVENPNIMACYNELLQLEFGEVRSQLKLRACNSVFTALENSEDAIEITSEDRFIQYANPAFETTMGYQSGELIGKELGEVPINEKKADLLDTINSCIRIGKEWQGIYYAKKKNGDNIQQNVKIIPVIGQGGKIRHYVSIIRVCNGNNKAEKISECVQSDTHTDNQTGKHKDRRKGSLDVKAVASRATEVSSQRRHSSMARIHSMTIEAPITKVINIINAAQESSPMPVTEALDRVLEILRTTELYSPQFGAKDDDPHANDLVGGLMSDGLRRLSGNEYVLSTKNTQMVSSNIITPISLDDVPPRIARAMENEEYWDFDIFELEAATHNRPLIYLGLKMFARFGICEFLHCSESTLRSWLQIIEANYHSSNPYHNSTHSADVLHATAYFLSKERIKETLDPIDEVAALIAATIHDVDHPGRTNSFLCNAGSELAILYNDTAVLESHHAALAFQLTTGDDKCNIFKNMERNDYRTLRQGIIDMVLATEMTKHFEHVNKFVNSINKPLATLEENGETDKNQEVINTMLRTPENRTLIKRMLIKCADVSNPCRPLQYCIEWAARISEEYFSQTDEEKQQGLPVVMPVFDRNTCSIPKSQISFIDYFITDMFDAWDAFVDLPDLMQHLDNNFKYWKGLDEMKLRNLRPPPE
UniProt Q60492, sequence (whole entry, looked up): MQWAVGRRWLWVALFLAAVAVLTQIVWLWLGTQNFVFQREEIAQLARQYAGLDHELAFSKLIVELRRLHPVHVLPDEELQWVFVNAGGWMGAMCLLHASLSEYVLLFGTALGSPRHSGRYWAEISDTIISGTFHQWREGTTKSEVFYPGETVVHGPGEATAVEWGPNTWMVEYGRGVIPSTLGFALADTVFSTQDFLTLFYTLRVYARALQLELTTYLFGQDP
UniProt P35367, sequence (whole entry, looked up): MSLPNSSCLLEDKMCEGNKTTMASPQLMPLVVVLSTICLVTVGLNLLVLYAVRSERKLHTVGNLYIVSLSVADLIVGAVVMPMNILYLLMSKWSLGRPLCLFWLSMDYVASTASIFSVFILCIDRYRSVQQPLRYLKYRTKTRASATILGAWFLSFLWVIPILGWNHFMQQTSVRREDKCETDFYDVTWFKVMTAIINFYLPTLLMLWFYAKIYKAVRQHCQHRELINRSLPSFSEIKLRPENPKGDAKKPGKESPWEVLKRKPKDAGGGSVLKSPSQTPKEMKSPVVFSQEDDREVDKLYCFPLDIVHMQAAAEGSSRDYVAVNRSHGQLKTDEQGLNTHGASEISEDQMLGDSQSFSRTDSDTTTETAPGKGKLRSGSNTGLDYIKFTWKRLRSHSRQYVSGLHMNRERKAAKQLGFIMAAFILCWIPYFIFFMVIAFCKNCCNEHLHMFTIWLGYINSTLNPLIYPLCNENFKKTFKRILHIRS

The Ki of `CNc1ccc(/C=C/C=C/c2nc3ccc(OCC(O)CF)cc3s2)cn1` (stereo not drawn) is reported as > 10 µM (Microtubule-associated protein tau, AD brain aggregates (MAPT, Homo sapiens, UniProt P10636); Alzheimer's disease brain homogenate; added: [3H]asyn-44).
For `NC(=O)c1ccc[n+]([C@@H]2O[C@H](COP(=O)(O)OP(=O)(O)OC[C@H]3O[C@@H](n4cnc5c(N)ncnc54)[C@H](OP(=O)(O)O)[C@@H]3O)[C@@H](O)[C@H]2O)c1`, the Ki was 4.73 ± 0.5 µM (NADPH--cytochrome P450 reductase (Rattus norvegicus, UniProt P00388, del2-56/W677G); cytochrome c reduction, inhibitor; added: NADPH).
For `COc1ccc(Cl)cc1C(=O)NCCc1ccc(S(=O)(=O)NC(=O)NC2CCCCC2)cc1`, the Ki was 40 µM (Alpha-1-acid glycoprotein 2; competitive inhibitor, ultrafiltration; 15 min, 37 °C, added: [3H]S-disopyramide).
`CC(=O)c1ccccc1` has a Ki of > 50 µM (uncharacterized protein; binding, competitive fluorescence displacement).
For `Fc1ncccc1-c1ccc2c(n1)[nH]c1ccncc12`, the Ki was 0.0062 µM (MAPT PSP brain aggregates; binding; PSP human brain tissue; added: [3H]PI-2620).
For `C=C1CC/C=C(/C)CC[C@@H]2[C@@H]1CC2(C)C`, the Ki was > 50 µM (uncharacterized protein; binding, competitive fluorescence displacement).
`Fc1cc(-c2cnc3[nH]c4ccncc4c3c2)ccn1` gave a Ki of < 0.01 µM and 0.0096 µM (MAPT PSP brain aggregates; binding; PSP human brain tissue; added: [3H]PI-2620).
With `COc1ccc(CCC(C)N2CCc3cc(OC)c(OC)cc3C2)cc1` (stereo not drawn) the Ki was 0.0484 ± 0.0077 µM (SIGMAR1 (Cavia porcellus, UniProt Q60492); binding, [3H](+)-pentazocine displacement; guinea pig brain homogenate).
The Ki of `OCCCN1CC[C@@H]2C[C@H]1c1cc(-c3ccc(C(F)(F)F)cc3)ccc12` is reported as 6.59 µM (benzodiazepine site, rat brain; binding).
For `CCCCCCCCCCCC=O`, the Ki was > 50 µM (uncharacterized protein; binding, competitive fluorescence displacement).
`CN[C@@H]1CN2[C@@H](Cc3ccc(OC)cc3)[C@@H](O)[C@H]3C[C@@]2(CC[C@@H]3OP(=O)(O)O)C1` has a Ki of 0.0601 ± 0.0004 µM (Amidophosphoribosyltransferase (purF, Escherichia coli, UniProt P0AG16); enzyme activity; added: glutamine and PRPP).
For `CCCCC=O`, the Ki was > 50 µM (uncharacterized protein; binding, competitive fluorescence displacement).
With `O=C(c1ccc(CNCCCN2CCN(c3ccc(F)cc3)CC2)cc1)c1ccc([N+](=O)[O-])cc1` the Ki was 0.034 µM (TMEM97; radioligand binding; RT-4 cell membranes; added: 10 nM [3H]-DTG, 100 nM (+)-pentazocine).
`CC12CCC(CC1)C(C)(C)O2` gave a Ki of > 50 µM (uncharacterized protein; binding, competitive fluorescence displacement).
The Ki of `Fc1ccc(-c2ccc3c(n2)[nH]c2ccncc23)c(F)n1` is reported as 0.0346 µM (MAPT PSP brain aggregates; binding; PSP human brain tissue; added: [3H]PI-2620).
With `OC[C@H]1OC(O)[C@H](O)[C@@H](O)[C@@H]1O` (stereo partly drawn) the Ki was 15000 ± 1000 µM (Hexokinase-3 (HK3, Homo sapiens, UniProt P52790); substrate inhibition; added: ATP 100 mM, super-saturating).
The Ki of `COC(=O)C1=C(C)NC(C)=C(C(=O)OCCN(C)Cc2ccccc2)C1c1cccc([N+](=O)[O-])c1` (stereo not drawn) is reported as 13.9 µM (Alpha-1-acid glycoprotein 2; competitive inhibitor, ultrafiltration; 15 min, 37 °C, added: [3H]S-disopyramide).
The Ki of `O=C(CCCCC1SC[C@@H]2NC(=O)N[C@H]12)NCCCN(CCCN1CCN(C2CCCCC2)CC1)CC(=O)Nc1ccc(C(=O)c2ccccc2)cc1` (stereo in doubt) is reported as 0.0865 µM (TMEM97; radioligand binding; RT-4 cell membranes; added: 10 nM [3H]-DTG, 100 nM (+)-pentazocine).
`CC(=O)[C@H]1CC[C@H]2[C@@H]3CCC4=CC(=O)CC[C@]4(C)[C@H]3CC[C@]12C` gave a Ki of 58.3 µM (Alpha-1-acid glycoprotein 2; competitive inhibitor, ultrafiltration; 15 min, 37 °C, added: [3H]S-disopyramide).
`CNC(=O)[C@@]12C[C@@H]1[C@@H](n1cnc3c(NC)nc(C#C[c-]4cccc4)nc31)[C@H](O)[C@@H]2O.[Fe+2].c1cc[cH-]c1` has a Ki of 0.085 µM (HRH1 (Homo sapiens, UniProt P35367); radioligand binding (PDSP)).
For `CCCCCCCCCCCC`, the Ki was > 50 µM (uncharacterized protein; binding, competitive fluorescence displacement).
The Ki of `COc1ccccc1OCCNCC(O)COc1cccc2[nH]c3ccccc3c12` (stereo not drawn) is reported as 25 µM (Alpha-1-acid glycoprotein 2; competitive inhibitor, ultrafiltration; 15 min, 37 °C, added: [3H]S-disopyramide).
`CCCCCCCCCC=O` has a Ki of > 50 µM (uncharacterized protein; binding, competitive fluorescence displacement).
`Cc1ccc([C@H]2C[C@@H]2COc2cc(NCc3nnc(C)s3)nc(C)n2)nc1` has a Ki of > 50 µM (PDE8A (Homo sapiens, UniProt O60658); enzyme activity, inhibitor, IMAP fluorescence polarization; isoform PDE8A1, added: cAMP substrate).
